Measured values of several laboratories.
Lines come from different studies, so protocols differ.
Target: Tyrosine-protein kinase JAK1 (JAK1, Homo sapiens, UniProt P23458)
UniProt P23458, sequence (whole entry, looked up): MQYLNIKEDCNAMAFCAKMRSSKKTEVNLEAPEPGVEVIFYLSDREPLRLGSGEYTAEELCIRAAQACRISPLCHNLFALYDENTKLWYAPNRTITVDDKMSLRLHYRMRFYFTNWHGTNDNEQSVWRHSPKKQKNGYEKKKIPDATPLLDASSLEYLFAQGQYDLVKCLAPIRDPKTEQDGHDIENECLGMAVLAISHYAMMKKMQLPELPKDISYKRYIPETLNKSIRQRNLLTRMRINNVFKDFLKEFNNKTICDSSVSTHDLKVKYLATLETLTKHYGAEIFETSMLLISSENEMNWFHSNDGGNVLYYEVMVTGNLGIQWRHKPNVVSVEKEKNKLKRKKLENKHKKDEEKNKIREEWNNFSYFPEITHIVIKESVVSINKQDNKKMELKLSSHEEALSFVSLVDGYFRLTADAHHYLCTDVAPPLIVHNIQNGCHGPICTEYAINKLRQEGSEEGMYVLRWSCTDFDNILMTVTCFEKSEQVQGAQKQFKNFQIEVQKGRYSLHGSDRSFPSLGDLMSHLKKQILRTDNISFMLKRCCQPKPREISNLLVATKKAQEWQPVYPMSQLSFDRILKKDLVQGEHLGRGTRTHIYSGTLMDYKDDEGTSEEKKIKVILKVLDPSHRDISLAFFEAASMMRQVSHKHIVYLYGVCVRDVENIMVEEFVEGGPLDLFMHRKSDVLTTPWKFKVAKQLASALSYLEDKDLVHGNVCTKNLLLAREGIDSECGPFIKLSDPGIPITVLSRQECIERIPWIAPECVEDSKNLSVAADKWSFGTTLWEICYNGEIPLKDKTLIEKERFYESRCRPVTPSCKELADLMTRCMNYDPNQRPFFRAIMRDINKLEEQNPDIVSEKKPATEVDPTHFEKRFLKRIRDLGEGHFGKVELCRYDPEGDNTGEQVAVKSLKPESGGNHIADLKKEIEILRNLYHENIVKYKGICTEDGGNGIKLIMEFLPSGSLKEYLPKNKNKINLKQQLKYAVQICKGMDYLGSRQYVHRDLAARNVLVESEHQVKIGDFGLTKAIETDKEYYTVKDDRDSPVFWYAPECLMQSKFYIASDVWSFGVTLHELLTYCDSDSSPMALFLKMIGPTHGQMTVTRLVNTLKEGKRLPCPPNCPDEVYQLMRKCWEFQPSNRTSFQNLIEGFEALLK
Mode: inhibitor

Compound | test | conditions | IC50 [nM]
Cc1ccc2oc(-c3c4c(N)n[nH]c(=O)c4nn3-c3ccc(NC(=O)/C=C/CN(C)C)cc3)c(C)c2c1 | enzyme activity, FRET | – | > 1000
N#C/C(=C\c1cccc(-c2cnc3[nH]cnc3c2)c1)C(N)=O | kinase activity | up to highest tested, added: ATP at Km | > 10000
CN(C(=O)c1ccn2ncc(-c3ccc(C(N)=O)cc3)c2c1)c1ccc(C#N)cn1 | enzyme activity | – | > 10000
COc1ccc(-c2cccc3nc(NC(=O)C4CC4)nn23)cc1 | enzyme activity | – | 72
COc1ccc2c(c1)C(=C1Nc3ccccc3C1=NOCC(O)CO)C(=O)N2 (centres unmarked) | enzyme activity, radiometric | – | 10.4
Cc1cnc(Nc2cc(C)c(C)c(C)c2)nc1Nc1ccc2oc(=O)[nH]c2c1 | enzyme activity | – | 2.4
C=CC(=O)N1CCc2ccc(-n3c(=O)ccc4cnc5ccc(-c6cnn(C)c6)cc5c43)cc21 | enzyme activity | – | > 10000
Cc1[nH]nc2c1N=C(c1ccccc1Cl)c1cnc(N3CCOCC3)cc1N2 | enzyme activity | – | 15

Excerpt of the above:
Compound | test | conditions | IC50 [nM]
Cc1[nH]nc2c1N=C(c1ccccc1Cl)c1cnc(N3CCOCC3)cc1N2 | enzyme activity | – | 15
